# Assay results gathered from unrelated publications.
# Each numbered part is a random draw from the data of one study; scales do not carry over between parts.

# Series 1 — technique: RNA Bind-n-Seq; form: RNA; sample: in vitro; tested at: 200 nM; notes: whole 134-nt RNA, ends assumed; with: 150 mM LiCl; relative to: input library; direction: higher = stronger binding; library: 7-deaza-guanosine replaces G
# Target: Ras GTPase-activating protein-binding protein 1, full length (G3BP1, Homo sapiens, UniProt Q13283)
# UniProt Q13283, sequence (whole entry, looked up): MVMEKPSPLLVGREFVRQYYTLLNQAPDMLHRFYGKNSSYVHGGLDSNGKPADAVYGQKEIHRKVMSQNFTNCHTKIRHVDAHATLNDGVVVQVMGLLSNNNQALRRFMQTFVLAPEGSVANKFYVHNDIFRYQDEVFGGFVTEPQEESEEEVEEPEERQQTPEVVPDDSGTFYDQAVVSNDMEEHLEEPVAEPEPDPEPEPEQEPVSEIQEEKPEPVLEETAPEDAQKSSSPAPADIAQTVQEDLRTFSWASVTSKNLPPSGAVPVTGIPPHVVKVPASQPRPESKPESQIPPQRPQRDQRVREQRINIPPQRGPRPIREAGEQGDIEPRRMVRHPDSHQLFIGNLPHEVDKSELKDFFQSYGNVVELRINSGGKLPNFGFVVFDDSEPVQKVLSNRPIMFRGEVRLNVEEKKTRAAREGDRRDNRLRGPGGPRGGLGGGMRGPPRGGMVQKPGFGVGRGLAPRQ
# Constant ends, left off below: GGGAGUUCUACAGUCCGACGAUC … UGGAAUUCUCGGGUGUCAAGG
Strand,log2 enrichment
AGUCCUGUGCUACACAUCGUAUGUACCGAAUCGGGGUUUGGGGAAAGGGGUUUGGGGAAAGUAUUAUGUUACGCCGUUCGGAUCUGCACU,-0.84
CCUGUGCUACACAUCGUAUGUACCGAAUCGGGGCCCCCCGGGCCCCCCGGGCCCCCCGGGGAAAGUAUUAUGUUACGCCGUUCGGAUCUG,-0.796
CUCAAGUCCUGUGCUACACAUCGUAUGUACCGAAUCGGUGGUGGUUUUUUUGGAAAGUAUUAUGUUACGCCGUUCGGAUCUGCACUUCCA,0.623
UUUUCAAGGGCCGCUUGAAGAUGCCAUUGAAGAUGAGGAAGAAGAAUGUCCAUCAGAGGAAACAGACAUCAUCUCCAAAGGAGACUUUCC,-2.37
UCCUCAAGUCCUGUGCUACACAUCGUAUGUACCGAAUCGGCGGGCGGCGGGGAAAGUAUUAUGUUACGCCGUUCGGAUCUGCACUUCCAG,1.14
GUCCUGUGCUACACAUCGUAUGUACCGAAUCGGGGAGGGGAAAAAGGGGUUUUUGGGGAAAGUAUUAUGUUACGCCGUUCGGAUCUGCAC,0.221
CACAGACAACACGCACGCACACAGACACAGAGGGAAGGGGUUGGGAUGGGGACAGGGUGCACAGCAGGGCGGGGUAGGACCCCAGCCCCU,0.159
CCUCAAGUCCUGUGCUACACAUCGUAUGUACCGAAUCGGUGGUGGAAAAAGGAAAGUAUUAUGUUACGCCGUUCGGAUCUGCACUUCCAG,0.113
CAAGUCCUGUGCUACACAUCGUAUGUACCGAAUCGGUUUUUGGAGGAAAAAAAGGAAAGUAUUAUGUUACGCCGUUCGGAUCUGCACUUC,-0.714
CAAGUCCUGUGCUACACAUCGUAUGUACCGAAUCGGGGCCCGGCCCGGGGCCCGGGAAAGUAUUAUGUUACGCCGUUCGGAUCUGCACUU,-1.16
CAAGUCCUGUGCUACACAUCGUAUGUACCGAAUCGGGAAAGGAAAGGGAAAGGGGAAAGUAUUAUGUUACGCCGUUCGGAUCUGCACUUC,-0.0782

# Series 2 — technique: universal PBM; form: double-stranded DNA, one strand shown; sample: in vitro; tested at: not given; direction: higher = stronger binding
# Target: Sal-like protein 4, full length isoform B (SALL4, Homo sapiens, UniProt Q9UJQ4-2, residues 1-616)
# Notes: 8-mer, flanks averaged, mean of replicates
# Residues (chain): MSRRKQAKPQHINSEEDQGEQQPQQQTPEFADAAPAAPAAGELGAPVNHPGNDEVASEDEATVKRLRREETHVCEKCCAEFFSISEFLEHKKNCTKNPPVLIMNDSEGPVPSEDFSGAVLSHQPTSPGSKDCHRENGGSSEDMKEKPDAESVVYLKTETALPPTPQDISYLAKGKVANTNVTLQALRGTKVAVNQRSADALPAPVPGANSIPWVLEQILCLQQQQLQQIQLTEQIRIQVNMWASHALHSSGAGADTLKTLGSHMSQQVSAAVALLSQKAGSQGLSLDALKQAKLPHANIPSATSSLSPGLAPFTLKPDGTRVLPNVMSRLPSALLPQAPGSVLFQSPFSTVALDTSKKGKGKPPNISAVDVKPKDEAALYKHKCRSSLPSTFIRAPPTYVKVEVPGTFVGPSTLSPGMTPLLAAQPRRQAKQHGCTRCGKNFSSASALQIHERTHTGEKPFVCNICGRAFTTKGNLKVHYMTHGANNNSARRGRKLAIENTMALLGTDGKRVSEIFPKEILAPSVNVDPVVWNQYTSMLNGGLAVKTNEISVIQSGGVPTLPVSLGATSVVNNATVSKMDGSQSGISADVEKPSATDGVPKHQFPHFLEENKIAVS
Strand,E-score
AGCTGAGC,-0.314
AGCGACTC,-0.243
CCCGTTCA,-0.138
ATAGGCGG,0.0467
GAGAAAGA,0.103
CGAGCTAG,-0.0912
AGCGCACG,-0.266
CATCCGAA,0.0318
AGTCGTAG,-0.00407
CCACTAGA,-0.0682
AGGGACCT,-0.174
TAGATAGA,0.143
CATGAATG,0.182
GGAGGTAC,-0.185
ACACGGGT,-0.158
GGATGGCA,0.0511

# Series 3 — technique: protein-binding microarray; form: double-stranded DNA, one strand shown; sample: in vitro; tested at: 2540 nM top; notes: 60-bp whole probe; with: salmon DNA 0.4 mg/ml; relative to: random background probes; direction: higher = stronger binding; constant ends, left off below: GCCTAGCAC … GTCTTGATTCGCTTGACGCTGCTG
# Target: Interferon regulatory factor 3, full length, phosphomimetic (IRF3, Homo sapiens, UniProt Q14653, residues 1-427, S386D/S396D/S398D/S402D/T404D/S405D)
# Target sequence (chain): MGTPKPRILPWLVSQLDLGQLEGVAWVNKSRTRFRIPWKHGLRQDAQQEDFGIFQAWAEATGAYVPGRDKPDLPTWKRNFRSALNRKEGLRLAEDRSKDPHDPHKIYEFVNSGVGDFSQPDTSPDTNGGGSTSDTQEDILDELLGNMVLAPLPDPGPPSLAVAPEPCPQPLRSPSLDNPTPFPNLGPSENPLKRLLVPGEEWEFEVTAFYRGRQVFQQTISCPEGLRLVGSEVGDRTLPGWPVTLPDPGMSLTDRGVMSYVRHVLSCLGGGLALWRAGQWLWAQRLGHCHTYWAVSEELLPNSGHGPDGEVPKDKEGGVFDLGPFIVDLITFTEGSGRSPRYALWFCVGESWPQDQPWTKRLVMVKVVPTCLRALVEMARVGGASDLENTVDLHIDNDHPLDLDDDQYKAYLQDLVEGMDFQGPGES
Strand,fitted relative affinity [z-score]
CAGAAAATGGAAACTCGTATGGTGCTA,1.93
TTAGGGATCGGTATCGGTTAGTGCTAG,3.19
TCAGGTCTCGGTATCGGTTAGTGCTAG,2.8
TTAGGTTTCGGAATGGGTTAGTGCTAG,6.79
CAATATTTGCAACATCCCAATGTGCTA,0.749
GACGATCTGAGACTGGAGACGTGCTAG,-0.158
TCAGTATTTTTTCTGAAACTGTGCTAG,0.889
GACGGGATCGGGACTGGGGACGTGCTA,-0.247
GACGGTTTCCTACTGCTGACGTGCTAG,5.18
AGGGCAGGGAGGGGGACAGCGTGCTAG,-0.227
GACGTTTTCGACTATCGGGACGTGCTA,2.23
CTAGAACTGAGACTGGATTAGTGCTAG,-0.234
TTAGAAATCAGACTGGATTAGTGCTAG,-0.187
GACGGACTGCCTCTCCTGACGTGCTAG,-0.544
TTAGGACTGGACACTGGGTTCGTGCTA,-0.863
TCAACTCTCTTGTCTGGAACTGTGCTA,0.278
GACGATTACAGTTTCGAGACGTGCTAG,2.2
TTAGGTTTCGACACTGGGTTAGTGCTA,2.56
TCATTTTTTTCTATATGACTGTGCTAG,1.48
TCAATTTTCTCTTATTCACTGTGCTAG,1.38
GACGGTTTCGCGTTTCGGGACGTGCTA,3.3
GACGGACTGCGTCTCGGGACGTGCTAG,-0.78
GATGAATAAAGCGTTGCTGCGTGCTAG,-0.519
TCACCCCTCCCCCTCAGACTGTGCTAG,0.118
TTAGATTTCAGACAGGATTAGTGCTAG,0.23

# Series 4 — technique: RNA Bind-n-Seq; form: RNA; sample: in vitro; tested at: 365 nM; relative to: no-protein control; direction: higher = stronger binding
# Target: RNA binding protein fox-1 homolog 2, RRM domain, GST-SBP tag (RBFOX2, Homo sapiens, UniProt O43251-10, residues 100-194)
# Notes: natural RNA segment, single round, ends assumed
# Constant ends, left off below: GGGAGUUCUACAGUCCGACGAUC … UGGAAUUCUCGGGUGCCAA
# Construct (chain): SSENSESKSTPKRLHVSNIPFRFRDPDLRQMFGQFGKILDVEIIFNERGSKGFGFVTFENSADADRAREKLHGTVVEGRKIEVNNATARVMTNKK
Strand,RBNS enrichment (R)
GUAAUAAUUGUUCUGCAAAGGUUAAGAAAGCCACUGAGUCACAGUCUUCAUGGACUUUUGGGGUUUCUUAGUGUUGGAUUUUUGGGGUUUCUCAUUUACUUUUUACUCUU,0.5
AUAGAAACACUACAGGUGUGUGCACACAGCACUCAGGUUGGCAUGUUUGGUGUUGAAAUGGGGUCAUUUCAUUCCAUGUUAUGAAUGCAACCAGAAAGGGUGUCUGGGAU,1.51
CAUUUCCUCUUUCCAAGACCAACCUACAAUUUUCCCUUGAUAACCAUAUAAAUUCUGAUUUAAGGUCCUAAAUUCUUAACCUGGAACUGGAGUUGGCAAUACCUAGUUCU,0.536
UUUGGGCUGCUGGGGCUGAGCUGUCUGCUUGAUGCUGACAGACUCCUAGUGUCAGCUCCCAGGCCGCCUUAGAGCUGCUCAUUCCUGAAUGACUGGCUCCCCUGCCCUUU,0.272
ACAGACUAAAUGUGCAAGCACCUUGAAGUGUGAGAACCUGUCCCCUCCUUAGCUCUCCUUGUCUUUGCUGUUGGUUGGUUAUUUCCUGCUUUGUGUCUGUUCUGAGCUGU,0.972
CCUCUAAUAUCCACACAUUCCAUCCCCCCAGCCCCAUGUAGAUGGUGGGGUUAAGACCAUUCUUCAGAUGUGGAAAUGAAGGCUCUGGGAGACCACAGGACAUGCCCAAG,0.876
UUAAGGAAGAAAGAAAGAGGAAAAAAAGAGAGAGAGACUCUCCAGGAGACUGUCUGGUGUCAUGACUGAAUCGCCACCUCUCUGGAAGGUGUACCGUCCUCAGGAAGCCA,1.03
AUUUUUAGACUAAAUCCACGCAUGAAAAAUAUUUCCUCAUUAUUCUUAUCUGCUUAGUGGAUUUUAUGCCCUUAUAACUAAGUAAAGAAAAUUUAUGACUACCAAAUAUU,5.45
CACACAGACGAAGGUAGCCAGUCACAAGGUUCUGUGCCACCCUGGCCCUAGUGCUUCCAUCUGAUGGGGUGACCACACCCCUCACAUUCCACAGGCCUGAUUUUUAUAAA,0.727
AUUUUUACAUCUAACAAAGUAAAAAAAUUAAAAAGAGGGUAAGAAACGAUUCCGGUGGGAUGAUUUUAACAUGCAAAAUGUCCCUGGGGGUUUCUUCUUUGCUUGCUUUC,1.16
UUGUUUUACUCCCAAUGACUGCACUAUAUGUAUGCAUAAGACCACUUUUGAGCGCUGUGUUCCCCCUUCUGAGUAGUCCUUUGACGACGUGUUGUGUUUUCUGAUGUUGA,1.6
GUUUUCAUAAUCGAAAGAAACGGGUAUCCAAAUAAAACCAAGUUCUUGACAUUGGUCUGUUUUGCUGUGAAUAUUGGAAAUGCUUAGGAUCUUCAGACCCAAUAGCUCUA,0.281

# Series 5 — technique: protein binding microarray; form: double-stranded DNA, one strand shown; sample: in vitro; tested at: not given; relative to: not given; direction: higher = stronger binding
# Target: Histone acetyltransferase KAT6A, winged helix 2, GST fusion (KAT6A, Homo sapiens, UniProt Q92794, residues 85-181)
# Notes: 8-mer, flanks averaged, mean of 2 arrays, mostly near background
# Residues (chain): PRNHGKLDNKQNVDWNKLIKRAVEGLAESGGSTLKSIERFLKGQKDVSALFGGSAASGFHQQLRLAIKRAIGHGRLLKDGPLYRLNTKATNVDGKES
Strand,E-score
TTGGACAA,-0.00534
ACGACATA,-0.0573
CAACACAC,-0.0738
AGCATCAA,0.172
GTTATCTA,-0.176
GGACAGCC,0.154
AAGAAGCG,-0.12
GCTGACGA,0.0387
ACGGAGAT,-0.113
CAATGCCC,-0.0504
GCAAGCCC,0.0378
ACTAGGGA,-0.132
GACTGCAC,-0.0985
ATCTAACA,-0.154
CGTGTAAC,-0.182
GTAAAAGA,0.0352
ACAAGTTA,-0.158
CCATAAGA,-0.0559
CTAGAAAC,-0.0888
CCCCCACG,-0.0983
GCCCCCTA,-0.00817
ACGGGACG,0.0189
